Measurements gathered from unrelated publications.
Every numbered part comes from another study and shows a few of its results, in no order.

Series 1 — technique: aptamer microarray, sandwich; form: DNA with 2'F-ANA; medium: in vitro; tested at: 200 nM; added: Cy3 exosite-II aptamer, 400 nM; direction: higher = stronger binding; oligonucleotide: GGTTGGTGTGGTTGG
Target: Prothrombin, mature alpha-thrombin (F2, Homo sapiens, UniProt P00734)
Notes: whole 15-mer aptamer, many near background
Modification | mean fluorescence intensity
2'F-ANA at 1 7 10 12 | 71.1 a.u.
2'F-ANA at 1 2 3 5 9 11 12 13 14 15 | 96.3 a.u.
2'F-ANA at 3 4 5 6 7 8 10 11 14 15 | 49 a.u.
2'F-ANA at 1 5 9 10 13 15 | 44.4 a.u.
2'F-ANA at 1 3 4 5 7 8 10 12 13 15 | 50 a.u.
2'F-ANA at 3 4 5 8 11 12 | 196 a.u.
2'F-ANA at 2 5 9 10 11 13 | 66.4 a.u.
2'F-ANA at 1 6 7 8 11 13 15 | 189 a.u.
2'F-ANA at 2 5 6 7 9 10 11 12 | 55.2 a.u.
2'F-ANA at 3 4 5 9 11 12 14 15 | 52.8 a.u.
2'F-ANA at 1 3 7 8 10 11 12 15 | 98.7 a.u.
2'F-ANA at 2 3 7 9 11 14 | 398 a.u.
2'F-ANA at 1 2 4 5 7 10 13 | 42 a.u.

Series 2 — technique: RNAcompete; form: RNA; medium: in vitro; tested at: 20 nM; notes: 7-mer, probes averaged, single round; reference: mean of 7-mers; direction: higher = stronger binding
Target: PABPC1L2, full length, GST fusion (mouse, UniProt A0ABA7IW68)
Construct (chain): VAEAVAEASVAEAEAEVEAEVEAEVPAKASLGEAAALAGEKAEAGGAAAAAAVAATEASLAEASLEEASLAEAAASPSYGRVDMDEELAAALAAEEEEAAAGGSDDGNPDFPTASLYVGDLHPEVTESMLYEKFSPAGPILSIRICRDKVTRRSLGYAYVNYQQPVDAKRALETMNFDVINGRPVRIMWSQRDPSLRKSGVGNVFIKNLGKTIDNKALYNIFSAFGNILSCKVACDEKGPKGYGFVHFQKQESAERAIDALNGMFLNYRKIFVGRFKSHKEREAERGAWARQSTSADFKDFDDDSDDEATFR
Oligonucleotide | 7-mer Z-score
CUGUGAC | -0.271
CACGUAG | -0.05
GUUAGUC | -0.358
UAAAACU | 1.62
ACACCCG | -0.0899
GAUUGAA | -0.0754
CAUGCGC | -0.237
CCCUGCC | -0.503
CCCCCUU | -0.525
GAUGGAC | -0.0391
GGCGUCU | -0.157
UCCCUUU | -0.253
UAUAACA | 0.0406
CCUUAGC | -0.416

Series 3 — technique: RNA Bind-n-Seq; form: RNA; medium: in vitro; tested at: 20 nM; notes: 6-mer, flanks averaged, single round; added: 150 mM KCl; reference: input library; direction: higher = stronger binding
Target: TAR DNA-binding protein 43, full length, His tag (TARDBP, Homo sapiens, UniProt Q13148, residues 1-414)
Oligonucleotide | 6-mer enrichment (R)
CCAGCG | 1.09
ACGGCC | 0.841
CCGCAA | 0.678
AUUCUG | 0.602
GUACCG | 0.907
AAAACC | 0.607
GUAAAC | 0.653
GCGGUG | 3.24
GGCCAG | 1.91
UCGUAG | 0.749
CCAGUA | 0.672
UAUUGA | 0.645

Series 4 — technique: protein binding microarray; form: double-stranded DNA, one strand shown; medium: in vitro; tested at: not given; reference: not given; direction: higher = stronger binding
Target: Histone acetyltransferase KAT6A, winged helix 1, GST fusion (KAT6A, Homo sapiens, UniProt Q92794, residues 1-85)
Notes: 8-mer, flanks averaged, mean of 2 arrays, mostly near background
Residues (chain): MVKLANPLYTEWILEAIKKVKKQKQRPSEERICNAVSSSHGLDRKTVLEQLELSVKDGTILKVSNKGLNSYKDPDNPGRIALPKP
Oligonucleotide | E-score
CCGACATC | 0.125
CGGAGCAG | 0.207
CGTGAGTC | 0.0931
ATACTATC | -0.0385
AGCAATCA | -0.236
TCGTCACA | -0.0307
GAGGTACC | -0.00564
CCCTAGGG | -0.217
CTCAGGAG | -0.0564
GGTCTCAC | -0.105
AGCCGTTG | 0.212
AGTTAGCC | 0.0553
CGTTATTA | 0.241
CCCTGGAG | -0.243
AGTAACTG | -0.145
CGGGCCGC | 0.41

Series 5 — technique: universal PBM; form: double-stranded DNA, one strand shown; medium: in vitro; tested at: 600 nM; direction: higher = stronger binding
Target: Sal-like protein 4, full length isoform A (SALL4, Homo sapiens, UniProt Q9UJQ4, residues 1-1053)
Sequence of UniProt Q9UJQ4 (whole entry, looked up): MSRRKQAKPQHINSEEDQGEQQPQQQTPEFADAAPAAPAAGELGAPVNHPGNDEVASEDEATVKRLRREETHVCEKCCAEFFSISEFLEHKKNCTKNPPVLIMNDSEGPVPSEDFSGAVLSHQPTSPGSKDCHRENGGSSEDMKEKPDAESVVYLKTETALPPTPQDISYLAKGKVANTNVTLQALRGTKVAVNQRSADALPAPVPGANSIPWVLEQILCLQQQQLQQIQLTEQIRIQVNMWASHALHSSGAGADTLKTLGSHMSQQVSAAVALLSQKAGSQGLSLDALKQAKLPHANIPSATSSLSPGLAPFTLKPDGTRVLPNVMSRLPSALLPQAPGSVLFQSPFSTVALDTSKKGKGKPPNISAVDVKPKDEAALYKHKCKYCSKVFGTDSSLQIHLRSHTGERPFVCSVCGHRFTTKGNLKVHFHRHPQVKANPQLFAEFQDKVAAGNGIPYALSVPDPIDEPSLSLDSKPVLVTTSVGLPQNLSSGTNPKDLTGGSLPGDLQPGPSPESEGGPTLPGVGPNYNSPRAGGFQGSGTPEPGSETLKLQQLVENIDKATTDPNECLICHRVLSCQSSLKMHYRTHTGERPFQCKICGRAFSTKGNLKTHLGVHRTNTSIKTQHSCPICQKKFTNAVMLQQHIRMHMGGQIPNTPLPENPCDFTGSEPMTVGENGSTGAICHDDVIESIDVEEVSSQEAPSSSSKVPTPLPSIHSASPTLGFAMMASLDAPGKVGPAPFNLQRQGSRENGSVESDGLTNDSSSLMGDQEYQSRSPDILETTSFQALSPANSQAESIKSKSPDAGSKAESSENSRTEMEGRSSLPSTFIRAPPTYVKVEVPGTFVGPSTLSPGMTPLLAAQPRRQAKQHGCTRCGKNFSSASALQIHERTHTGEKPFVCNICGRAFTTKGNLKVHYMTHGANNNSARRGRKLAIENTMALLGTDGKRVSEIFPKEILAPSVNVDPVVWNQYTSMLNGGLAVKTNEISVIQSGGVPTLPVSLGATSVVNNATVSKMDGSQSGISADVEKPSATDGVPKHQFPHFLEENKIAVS
Notes: 8-mer, flanks averaged, mean of replicates
Oligonucleotide | E-score
CTGGGGAC | -0.362
GACCTCTC | -0.213
ATGGCGAG | -0.104
AATCCCGG | -0.204
CACTATGG | 0.0267
ATAGCCAA | 0.136
ATACTCTG | 0.147
AGTCGAAC | -0.127
ACACTTGC | 0.106
CCAGCCAC | -0.205
CTCAGAGC | -0.273
GTGAAAAC | -0.0444
AGGAAAGA | 0.00928
ATAAGCGC | -0.095
AGTCGTGA | -0.0703
CCACAGGA | -0.0177
GACAGTCC | -0.252
CAAGCTGA | -0.0735
CACCCACG | -0.359
CCACTATC | -0.0613
CCAAGTGA | -0.0512
ATTGCCTG | 0.0433
GATGCTGA | -0.15
TCGAACAA | 0.101
GCCATTCC | -0.233

Series 6 — technique: RNA Bind-n-Seq; form: RNA; medium: in vitro; tested at: 90 pmol; notes: 4-mer, random 30-nt RNA, single round; reference: input library; direction: higher = stronger binding
Target: ATP-dependent RNA helicase DDX3X, helicase core (DDX3X, Homo sapiens, UniProt O00571, residues 132-607)
Sequence of UniProt O00571 (132-607, looked up): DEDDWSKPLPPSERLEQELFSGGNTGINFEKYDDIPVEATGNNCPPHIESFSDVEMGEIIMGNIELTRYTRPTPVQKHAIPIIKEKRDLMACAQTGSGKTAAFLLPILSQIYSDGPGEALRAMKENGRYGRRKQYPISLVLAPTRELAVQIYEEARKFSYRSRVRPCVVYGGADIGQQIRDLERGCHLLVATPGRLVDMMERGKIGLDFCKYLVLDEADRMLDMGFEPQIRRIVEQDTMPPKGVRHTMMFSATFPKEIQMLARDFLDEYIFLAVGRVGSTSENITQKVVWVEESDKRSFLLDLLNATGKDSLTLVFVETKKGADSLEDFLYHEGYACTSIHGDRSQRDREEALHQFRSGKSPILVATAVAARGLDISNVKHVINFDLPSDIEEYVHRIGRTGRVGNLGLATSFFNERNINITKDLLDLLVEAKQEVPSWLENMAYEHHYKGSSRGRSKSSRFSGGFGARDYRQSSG
Added: 3 µM iPr-DMDA-PatA, 2 mM ADP, 2 mM phosphate
Oligonucleotide | 4-mer enrichment [fold]
UGAC | 0.992
ACAC | 1.21
GACG | 1.07
CAGU | 0.891
CCUC | 1.02
UAGU | 1.06
CGAG | 1.02
UGGG | 0.835
GUAA | 1.15
UUGA | 1.14
GGUU | 0.872
UCAU | 0.949
GCAA | 1.03
CUCU | 0.853
GCAU | 0.803

Series 7 — technique: protein-binding microarray; form: double-stranded DNA, one strand shown; medium: in vitro; tested at: 250 nM; notes: 60-bp whole probe; added: salmon DNA 0.4 mg/ml; reference: random background probes; direction: higher = stronger binding; all sequences stand within: GCCTAGCAC … GTCTTGATTCGCTTGACGCTGCTG
Target: Interferon regulatory factor 5, full length, phosphomimetic (IRF5, Homo sapiens, UniProt Q13568-2, residues 1-514, K96S/S451D/S453D/S456D/S462D)
Oligonucleotide | log fluorescence [z-score]
GACGGTTTCGGTCTCGTGACGTGCTAG | 9.69
TCAATTTCCATTTTCTAACTGTGCTAG | 1.99
AATTTTTTTTCTAACTAAAAGTGCTAG | 1.28
TTTTTTTTTTTTTTTTGGAAGTGCTAG | 1.26
TTAGGACTGCTTTTCCTGTAGTGCTAG | -0.0255
TCAGTTTCCAGTATATTACTGTGCTAG | 1.34
TTAGGTTTCGGTATCGTTTAGTGCTAG | 10.4
TCACCTTTGCTTTCCTGACTGTGCTAG | 0.484
GACGATATCGGGTAGCGAGACGTGCTA | 2.06
GACGAACTGAGTTTCGAGAAGTGCTAG | 4.82
TTAGGTCTCGGTTGCGGTTAGTGCTAG | 1.16
TTATATATCGGGACTGGATTAGTGCTA | 1.47
GACGATTTCAGTTCCGAGGCGTGCTAG | 1.16
ATCATTTTAGTTTTCATTATGTGCTAG | 2.98
TCAACCATCCTATGTAGAACTGTGCTA | 0.239
GACGGGATCGGACTGGGGACGTGCTAG | -0.372
TCATTTTTTTTATTTATACTGTGCTAG | 1.29
TCAAAACTCACTCATGGCACTGTGCTA | -0.156
TCATAGGTTTCACTTTCCACTGTGCTA | 4.97
TCACGTAAGCAAAAATGACTGTGCTAG | 0.192
